Assay results from different studies.
“And” joins repeats or separate records; there may be more than shown. ± marks the error that the study gave.

Structure (SMILES)	test	system	setting	how to read	endpoint	result
CCN1CCN(Cc2ccc(NC(=O)c3ccc(C)c(NC(=O)c4cncc(-c5cccs5)c4)c3)cc2C(F)(F)F)CC1	–	C57BL/6 mice, epithelial lining fluid	intraperitoneal, 20 mg/kg	–	AUC(0-t)	6190 ng·h/mL
CN1C[C@H](COc2nccc3c(NCc4ccco4)cc(Cl)nc23)OC1=O	–	rabbit, isolated Langendorff heart	dose not given	–	effect on PR	negative
CC(C)OCc1ccccc1NS(=O)(=O)c1cccc(Cl)c1O	colloidal aggregate formation, dynamic light scattering	50 mM potassium phosphate buffer	200 µM, pH 7.0, 1% DMSO	higher = more aggregation	DLS scattered light intensity	1.03e+06 counts/s
O=[N+]([O-])c1cnc2ccccc2c1O	haemolysis	sheep erythrocytes	1 h, pH 7.5	–	HC50	> 128 µg/mL
O=C1NCCc2ccc(CNS(=O)(=O)c3cc(Cl)cc(Cl)c3O)cc21	colloidal aggregate formation, dynamic light scattering	50 mM potassium phosphate buffer	200 µM, pH 7.0, 1% DMSO	higher = more aggregation	DLS scattered light intensity	234000 counts/s
Cc1cc(-c2nnc(N)nc2-c2ccc(F)cc2)cc(Cl)n1	refers to: psoriasiform dermatitis, all grades	male IO-naive mCRPC patients	oral, dose not given	–	incidence of AE, immune-mediated, treatment-related	0%
CSCC(NS(=O)(=O)c1cnccc1C(=O)O)c1ccccc1Cl (stereo not drawn)	colloidal aggregate formation, dynamic light scattering	50 mM potassium phosphate buffer	200 µM, pH 7.0, 1% DMSO	higher = more aggregation	DLS scattered light intensity	325000 counts/s
Cc1ccc([C@@H]2O[C@H](CO)[C@@H](O)[C@H](O)[C@H]2O)cc1Cc1ccc(-c2ccc(F)cc2)s1	–	Japanese type 2 diabetes patients	100 mg, day 17, 24 h urine collection	reference: baseline	urinary magnesium excretion change	26.6 mg
CCCCC[C@H](O)CC[C@@H]1[C@H]2Cc3cccc(OCC(=O)O)c3C[C@H]2C[C@H]1O	LC-MS/MS	Japanese PAH patients aged ≥sample A years, plasma	inhaled, 54 µg	–	geometric mean Cmax	1.1 ng/mL
COc1c(N2C[C@@H]3CCCN[C@@H]3C2)c(F)cc2c(=O)c(C(=O)O)cn(C3CC3)c12	–	male Hartley guinea pig, anaesthetized	intravenous infusion, 5 mg/kg, 10 min infusion, post-infusion	–	QTc interval	313 ± 0.8 ms
CC(C)C(=O)O[C@H]1[C@H](C)OC(=O)[C@@H]1Cc1ccccc1	soil adsorption	clay loam soil	pH 6.8, organic carbon 0.5 %	–	Freundlich coefficient KF	2.3 mL/g
COc1cc(C(=O)N2CCC3(CC2)CC(=O)c2c(cnn2C(C)C)C3)cc(-c2ccc(C(=O)O)cc2)n1	refers to: total cholesterol	human, fasting serum	100 mg every 12 h, day 13, adjusted geometric mean	reference: baseline	percentage change from baseline	-11.9%
NC1(C(=O)N[C@@H](CCO)c2ccc(Cl)cc2)CCN(c2nc[nH]c3nccc2-3)CC1	–	metastatic CRPC patients	320 mg b.i.d., any grade, treatment-related, added: enzalutamide 160 mg daily	–	incidence of Neutropenia	0%
Cc1cc(-c2nccc3c2ccn3CC(=O)Nc2ccc(-c3cnccn3)cn2)ccn1	–	human	5 mg once daily, multiple ascending dose	–	subjects with coronavirus infection	0%
O=C1NCCc2nc(OCc3cccc(F)c3)ccc21	refers to: Ptosis	Sprague-Dawley rat male	oral, 100 mg/kg, 0 min	reference: baseline, direction not given	Irwin test score	0
COc1cccc(-c2n[nH]c(SCc3ccccn3)n2)c1OC	–	Sprague-Dawley rat, plasma	oral, 100 mg/kg	reference: female over male	Cmax ratio	1.26
O=C(Nc1cnccc1Cl)N1CCN(Cc2ccc3c(c2)OC(F)(F)O3)CC1	–	healthy young men, plasma	oral, 10 mg once daily, day 10	–	CL/F	17.7 L/h
COc1ccc2c(=O)n(C)c(-c3ccccc3)nc2c1	–	male Sprague-Dawley rat, large intestine	oral, 30 mg/kg, 0.5 h	–	tissue concentration	375 ng/g
O=C(Nc1ccc(NS(=O)(=O)c2cccc(Cl)c2O)cn1)C1CC1	colloidal aggregate formation, dynamic light scattering	50 mM potassium phosphate buffer	200 µM, pH 7.0, 1% DMSO	higher = more aggregation	DLS scattered light intensity	319000 counts/s

Structure (SMILES)	test	system	setting	how to read	endpoint	result
CCc1cc(C(=O)NC)c2nccc(N3CCc4c(cc(Cn5ccnc5)cc4-c4cn(C)nc4C(F)(F)F)C3=O)c2c1	refers to: Eos	Sprague Dawley rat	oral, 100 mg/kg once daily, 7 days	reference: vehicle	change in clinical chemistry or haematology parameter	-44.1%
O=C(Nc1nc2cccc(-c3ccc(CN4CCS(=O)(=O)CC4)cc3)n2n1)C1CC1	refers to: gastrointestinal disorders	human rheumatoid arthritis patients	oral, 75 mg once daily, 4 weeks, regardless of relatedness	–	treatment-emergent adverse events	18.2%
N#Cc1ccc2c(c1)[C@H]1CCCN(C(=O)c3ccc4[nH]cnc4c3)[C@H]1C2	–	human, male	40 mg, day 7	–	androstenedione level	6.3 nmol/L
COc1ccc2c(c1)CN(C(=O)CCN1CCC(Cc3ccccc3)CC1)CC[S@@+]2[O-]	–	healthy male volunteers, urine	intravenous, 0.6 mg/kg	reference: dose	urinary excretion	9.08%
CCO[C@H]1CCN(Cc2c(OC)cc(C)c3[nH]ccc23)[C@H](c2ccc(C(=O)O)cc2)C1	–	PNH patients, active haemolysis	oral, 50 mg, 4 weeks, treatment	–	incidence of cough	0%
Cc1cc(C)cc(NC(=O)Nc2ccc(N3CCCCC3)cc2)c1	haemolysis	sheep erythrocytes	1 h, pH 7.5	–	HC50	> 128 µg/mL
Cc1ccc(C(=O)N(CCCN)C(c2nc3snc(C)c3c(=O)n2Cc2ccccc2)C(C)C)cc1 (stereo not drawn)	–	human patients, plasma	intravenous, 10 mg/day, day 3 of induction course, geometric mean	–	plasma concentration at 24 h	12.3 ng/mL
Cc1ccc(O)c(-n2nc3ccccc3n2)c1	–	human aged 6-11 years	concentration not given, spray sunscreen, 95th percentile	–	daily dermal exposure dose	3640 ng/kg/day
Fc1ccc([C@@H]2CCNC[C@H]2COc2ccc3c(c2)OCO3)cc1	–	human, all CYP2D6 genotypes, plasma	oral, 20 mg, steady state	–	peak-trough fluctuation	56%
CNC(=O)c1cccc(-c2ccc(O[C@H]3O[C@H](CO)[C@@H](O)[C@H](O)[C@@H]3O)c(C)c2)c1	–	male Sprague-Dawley rat, plasma	intravenous, 3 mg/kg, group mean	–	terminal half-life	0.312 h
O=C(c1nc2n(n1)[C@H](c1ccccc1)C[C@@H]2F)C1CC1	–	human	225 mg single dose	–	fraction excreted in urine 0-72 h	0 to 0.4%
COCCOc1cnc2ccn([C@H](C)c3nnc4c(F)cc(-c5cnn(C)c5)cn34)c(=O)c2c1	–	cancer patients	oral, 300 mg once daily, 28 days, at mean Cmax 4140 ng/mL	–	QTcF change	~9.4 ms
CC1C(C)[C@H](C(=O)NCCc2nnnn2-c2ccccc2)[C@@H]1C(=O)[O-].[Na+] (stereo partly drawn)	colloidal aggregate formation, dynamic light scattering	50 mM potassium phosphate buffer	200 µM, pH 7.0, 1% DMSO	higher = more aggregation	DLS scattered light intensity	598000 counts/s
N#C[C@@]1(c2ccc3c(N)ncnn23)O[C@H](CO)[C@@H](O)[C@H]1O	–	beagle dog, male, plasma	oral, 6.5 mg/kg, capsule	–	half-life	3.39 h
C[C@H](O)c1cc(C(=O)N[C@@H](C)Cn2ccc(-c3ccc(C#N)c(Cl)c3)n2)n[nH]1	–	human, fasted, plasma	oral tablet, 300 mg, geometric mean	–	AUC(0-tlast)	10000 ng·h/mL
CCN1CCN(C(=O)N[C@@H](C(=O)N[C@@H]2C(=O)N3[C@@H]2SC(C)(C)[C@@H]3C(=O)O)c2ccccc2)C(=O)C1=O	–	human whole blood	concentration not given, 48 h, 4 °C	–	deviation from nominal concentration	-7.5%
C[C@@H](N)C1CCN(S(=O)(=O)c2cccc3cnccc23)CC1	–	healthy volunteers	25 mg and 250 mg combined, fasted	–	participants with TEAEs	37.5%
CNCCOC12CC3(C)CC(C)(CC(Cn4ncc(-c5ccc(N6CCc7cccc(C(=O)Nc8nc9ccccc9s8)c7C6)nc5C(=O)O)c4C)(C3)C1)C2	–	beagle dog, male, anaesthetised	intravenous bolus, 0.03 mg/kg, 15 min	reference: baseline	PR interval change	-9 ms
O=C(CCCN1CC=C(n2c(=O)[nH]c3ccccc32)CC1)c1ccc(F)cc1	–	male Hartley guinea pig, anaesthetized	intravenous, 0.03 mg/kg, baseline before infusion	–	QTc interval	308 ± 0.3 ms

Structure (SMILES)	test	system	setting	how to read	endpoint	result
CC(C)(C(=O)N1CCOc2c(C#N)cncc2C1)C(F)F	refers to: Constipation	human	oral, 40 mg, CSF pharmacokinetic cohort	–	subjects with adverse event	16.7%
CCOc1c([C@H](C)n2nc(C)c3c(N)ncnc32)cc(Cl)c(F)c1[C@@H]1CNC(=O)C1	–	patients with DLBCL, plasma	oral, 20 mg, day 15, monotherapy	–	half-life	9.5 ± 1 h
C[C@H](CCC(=O)NCC(=O)O)[C@H]1CC[C@H]2[C@@H]3CC[C@@H]4C[C@H](O)CC[C@]4(C)[C@H]3CC[C@]12C	–	human, plasma	endogenous baseline diurnal	–	daily mean concentration	31 ± 9.3 nM
FC(F)(F)c1ccc(CNc2ccc(Cc3c[nH]c4ncc(Cl)cc34)cn2)cn1	refers to: mucosal inflammation	human, advanced solid tumours, all patients	oral, 1000 mg/day, any grade	–	treatment-related adverse events	8%
C[C@@H](Oc1ccc(S(C)(=O)=O)cc1C(=O)N1C[C@@H]2C[C@]2(c2cc(C(F)(F)F)on2)C1)C(F)(F)F	–	human	oral, 25 mg	–	subjects with frequent bowel movements	16.7%
Nc1ccn([C@@H]2O[C@H](CO)[C@@H](O)C2(F)F)c(=O)n1	refers to: dFdU	human, plasma	intravenous, 800 mg/m^2, added: before paricalcitol	–	Tmax, median	1 h
O=C(O)CCC(=O)O.[2H]C([2H])([2H])Oc1cc(C)c2[nH]ccc2c1CN1CC[C@@H](C2CC2)C[C@H]1c1ccc(C(=O)O)cc1	–	healthy Chinese subjects	100 mg, single ascending dose	–	TEAE sinus bradycardia	0%
CCN1/C(=C/C(C)=O)Sc2ccc(F)cc21	–	cynomolgus monkey	oral, 10 mg/kg, 24 h post-dose	reference: pre-dose	heart rate change	91.1 ± 6.5%
Cn1ncnc1[C@H]1c2n[nH]c(=O)c3cc(F)cc(c23)N[C@@H]1c1ccc(F)cc1	–	human patients, plasma	oral, 600 µg/m2/day, day 5	–	Ctrough	3.9 ± 2.5 ng/mL
COc1cc2c3cc1Oc1c(OC)c(OC)cc4c1[C@@H](Cc1ccc(O)c(c1)Oc1ccc(cc1)C[C@@H]3N(C)CC2)N(C)CC4	–	mouse plasma, K3EDTA	0.5 h, 37 °C	–	remaining compound	102%
CC(C)[C@H](N)C(=O)NCCCS(=O)(=O)O	–	human both sexes, plasma	oral, 171 mg twice daily days 2-7, day 7, fasted capsule	–	AUC(0-12)	5790 ng·h/mL
CCCC1CCC(c2ccc(OCC)c(F)c2F)CC1 (stereo not drawn)	refers to: compound	human pregnant women, male fetuses, cord serum	dose not given, paired maternal-cord samples, mean	–	concentration	0.7 ng/mL
O=C(O)CC[C@H](NC(=O)N[C@@H](CCCCNC(=O)[C@H](Cc1ccc2ccccc2c1)NC(=O)[C@H]1CC[C@H](CNC(=O)CN2CCN(CC(=O)O)CCN(CC(=O)O)CCN(CC(=O)O)CC2)CC1)C(=O)O)C(=O)O	–	male BALB/c nude mice, LS174T-PSMA xenografts, prostate	intravenous, 0.3 nmol, 2 h, radiolabelled (111In or 99mTc)	reference: tumour over prostate	tumour-to-tissue ratio	140 ± 95.5
Cl.[2H]C([2H])([2H])CC(=O)c1cnc(NC(=O)C2CC2)cc1Nc1cccc(-c2ncn(C([2H])([2H])[2H])n2)c1OC	–	human, fasted, multiple dose	oral, 20 mg once daily, liquid formulation, day 7, geometric mean	–	Ctrough	13.6 ng/mL
Cc1nc(-c2ccc(OCC(C)C)c(C#N)c2)sc1C(=O)O	–	KM mouse, chronic hyperuricaemia model	dose not given, day 0	–	body weight	23.8 g and 24.2 g and 24.8 g and 25 g and 24.4 g and 25.8 g
O=c1[nH]c(=O)n([C@H]2C[C@H](O)[C@@H](CO)O2)cc1CCC[18F]	–	CD-1 nu/nu male mice, RG2 tumour, blood	intravenous, dose not given, 2 h, co-injection	–	blood concentration	0.31 ± 0.11 %ID/g
Cn1c(C(F)(F)F)cc(=O)n(-c2cc(Oc3cccnc3OCC(=O)O)c(Cl)cc2F)c1=O	–	Crl:CD(SD) rats, male, plasma	oral diet, 50 ppm in diet, day 1, 90-day toxicity study	–	AUC(0-24 h)	1020 ng·h/mL
Cc1ccc(Sc2ccccc2N2CCNCC2)c(C)c1	refers to: haemoglobin decreased	healthy adult men	oral, 20 mg daily, 12 days	–	participants with TEAE	0%
CNC(=O)c1ccc(-c2cnc3ncc(Cc4ccc5ncccc5c4)n3n2)cc1F	CTCAE v4.0, any causality	human cancer patients	oral, 600 mg twice daily, expansion cohort at RP2D	–	non-cardiac chest pain incidence (all grades)	3%

Some of these lines once more:
Structure (SMILES)	test	system	setting	how to read	endpoint	result
O=C(Nc1nc2cccc(-c3ccc(CN4CCS(=O)(=O)CC4)cc3)n2n1)C1CC1	refers to: gastrointestinal disorders	human rheumatoid arthritis patients	oral, 75 mg once daily, 4 weeks, regardless of relatedness	–	treatment-emergent adverse events	18.2%
O=C(c1nc2n(n1)[C@H](c1ccccc1)C[C@@H]2F)C1CC1	–	human	225 mg single dose	–	fraction excreted in urine 0-72 h	0 to 0.4%
CNCCOC12CC3(C)CC(C)(CC(Cn4ncc(-c5ccc(N6CCc7cccc(C(=O)Nc8nc9ccccc9s8)c7C6)nc5C(=O)O)c4C)(C3)C1)C2	–	beagle dog, male, anaesthetised	intravenous bolus, 0.03 mg/kg, 15 min	reference: baseline	PR interval change	-9 ms
COc1cc2c3cc1Oc1c(OC)c(OC)cc4c1[C@@H](Cc1ccc(O)c(c1)Oc1ccc(cc1)C[C@@H]3N(C)CC2)N(C)CC4	–	mouse plasma, K3EDTA	0.5 h, 37 °C	–	remaining compound	102%
Cc1ccc(C(=O)N(CCCN)C(c2nc3snc(C)c3c(=O)n2Cc2ccccc2)C(C)C)cc1 (stereo not drawn)	–	human patients, plasma	intravenous, 10 mg/day, day 3 of induction course, geometric mean	–	plasma concentration at 24 h	12.3 ng/mL
Cc1nc(-c2ccc(OCC(C)C)c(C#N)c2)sc1C(=O)O	–	KM mouse, chronic hyperuricaemia model	dose not given, day 0	–	body weight	23.8 g and 24.2 g and 24.8 g and 25 g and 24.4 g and 25.8 g
